Assay results pooled from the literature.
Numbered parts are unrelated; each lists some results of a single study. “And” joins repeats or separate records; there may be more than shown. Substitutions count along the parent as printed.
Sequence of UniProt P38919 (whole entry, looked up): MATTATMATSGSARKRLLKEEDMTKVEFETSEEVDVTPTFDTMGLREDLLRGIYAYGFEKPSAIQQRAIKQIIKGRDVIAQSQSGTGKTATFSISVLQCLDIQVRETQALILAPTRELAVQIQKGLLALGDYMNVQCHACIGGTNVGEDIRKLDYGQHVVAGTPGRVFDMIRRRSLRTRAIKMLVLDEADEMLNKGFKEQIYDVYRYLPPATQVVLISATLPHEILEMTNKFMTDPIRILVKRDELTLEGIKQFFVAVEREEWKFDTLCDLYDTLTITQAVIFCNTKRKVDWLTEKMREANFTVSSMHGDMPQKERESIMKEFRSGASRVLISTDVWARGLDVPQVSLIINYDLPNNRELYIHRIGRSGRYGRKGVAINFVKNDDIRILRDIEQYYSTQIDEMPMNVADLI

Set 1 — technique: DHFR PCA, deep sequencing; medium: yeast; with: (+)-ABA 0.11 µM; reference: wild-type fitted maximum; reading: higher = stronger binding
Target: ABI1, truncated, D143A, DHFR fusion (Arabidopsis thaliana)
Setting: methotrexate growth selection, single substitutions
Parent: PYL1, truncated, DHFR fusion (Arabidopsis thaliana); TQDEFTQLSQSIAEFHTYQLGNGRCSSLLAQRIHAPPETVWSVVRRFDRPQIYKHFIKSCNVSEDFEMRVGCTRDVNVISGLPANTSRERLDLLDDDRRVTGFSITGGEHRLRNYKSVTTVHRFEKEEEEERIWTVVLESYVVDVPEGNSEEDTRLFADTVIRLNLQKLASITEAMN
For `F47I`, “relative binding score” read -0.984%.
For `S150D`, “relative binding score” read 20.3%.
Under “relative binding score”, `L91C` is recorded as -7.06%.
`S11A` — result for “relative binding score”: 54.3%.
For `H122R`, “relative binding score” read -1.36%.
`N165R` — result for “relative binding score”: 6.45%.
Under “relative binding score”, `L8D` is recorded as -2.21%.
For `K116M`, “relative binding score” read -0.329%.

Set 2 — read-out: binding; technique: phage display NGS; form: peptide; setting: panning round 2; reference: input library
Target: UDP-N-acetylglucosamine--peptide N-acetylglucosaminyltransferase 110 kDa subunit (OGT, Homo sapiens, UniProt O15294)
Target sequence (O15294 1-1046): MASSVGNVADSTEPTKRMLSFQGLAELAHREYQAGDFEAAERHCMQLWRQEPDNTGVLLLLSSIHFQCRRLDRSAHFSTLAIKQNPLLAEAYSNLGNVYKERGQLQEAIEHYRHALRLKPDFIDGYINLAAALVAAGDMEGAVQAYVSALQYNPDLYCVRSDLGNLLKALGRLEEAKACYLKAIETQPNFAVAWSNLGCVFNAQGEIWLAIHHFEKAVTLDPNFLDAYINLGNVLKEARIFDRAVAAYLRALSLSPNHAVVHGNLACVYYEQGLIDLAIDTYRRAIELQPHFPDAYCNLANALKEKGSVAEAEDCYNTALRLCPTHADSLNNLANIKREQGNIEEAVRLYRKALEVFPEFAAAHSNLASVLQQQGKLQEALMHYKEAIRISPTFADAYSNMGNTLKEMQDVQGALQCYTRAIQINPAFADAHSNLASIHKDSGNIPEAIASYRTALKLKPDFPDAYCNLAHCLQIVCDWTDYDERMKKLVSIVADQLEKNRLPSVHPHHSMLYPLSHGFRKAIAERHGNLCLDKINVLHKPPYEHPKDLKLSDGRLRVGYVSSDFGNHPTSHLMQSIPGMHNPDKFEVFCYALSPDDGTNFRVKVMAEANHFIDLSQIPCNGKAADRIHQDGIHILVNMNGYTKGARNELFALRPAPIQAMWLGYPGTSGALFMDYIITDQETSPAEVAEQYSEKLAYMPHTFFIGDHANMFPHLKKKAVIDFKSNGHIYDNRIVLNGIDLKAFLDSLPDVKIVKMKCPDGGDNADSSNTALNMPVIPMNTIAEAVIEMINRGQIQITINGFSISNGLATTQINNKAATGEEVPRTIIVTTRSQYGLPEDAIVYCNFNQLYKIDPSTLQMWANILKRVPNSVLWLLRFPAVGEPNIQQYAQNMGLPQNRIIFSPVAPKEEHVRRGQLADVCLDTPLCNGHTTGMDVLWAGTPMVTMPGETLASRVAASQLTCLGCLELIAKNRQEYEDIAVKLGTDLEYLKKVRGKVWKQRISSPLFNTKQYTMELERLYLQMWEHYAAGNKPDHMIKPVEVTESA
Under “minimum log2 enrichment ratio”, `HWHLHDSLYHQVDIH` is recorded as 3.17.
`SINYKLQPKYQIFFP`: “minimum log2 enrichment ratio” 3.15.
Under “minimum log2 enrichment ratio”, `EYTPEYQIHYQVVQS` is recorded as 4.15.
`MQEYSPGYQIQFSKP` — result for “minimum log2 enrichment ratio”: 2.94.
Under “minimum log2 enrichment ratio”, `HIQEMHWHQINHEFT` is recorded as 1.53.
`HPVYHQVDTIQPHHH` — result for “minimum log2 enrichment ratio”: 2.29.
For `HWQHVHHADPSDAVK`, “minimum log2 enrichment ratio” read 3.23.
`QYVPYYQIEVNSQPY`: “minimum log2 enrichment ratio” 2.39.
`QDFKPMYQIKIRSHA` — result for “minimum log2 enrichment ratio”: 7.09.
For `RPYDMAYAPVYMIKY`, “minimum log2 enrichment ratio” read 2.59.
`THWSHYDTEHVDYTH` — result for “minimum log2 enrichment ratio”: 1.67.
`DSGMHWMHRHMHGWE`: “minimum log2 enrichment ratio” 3.18.
`KFMPVYQIIAEMGAF`: “minimum log2 enrichment ratio” 3.23.
`YTPLRHPMHEHDHNH` — result for “minimum log2 enrichment ratio”: 3.3.
For `VQAQFRPVYQIYSAP`, “minimum log2 enrichment ratio” read 2.15.
`EHYHMHDIMKNQHSH`: “minimum log2 enrichment ratio” 3.19.
`TVTPKYPPQYQILV`: “minimum log2 enrichment ratio” 3.44.
Under “minimum log2 enrichment ratio”, `VDTWHQRHHHQFSVD` is recorded as 2.39.
`AFSPFFPVYSIEIRR` — result for “minimum log2 enrichment ratio”: 3.29.
For `HVPRQHYAMYPHQYR`, “minimum log2 enrichment ratio” read 2.43.
`ANFMPYYEIMVSDP` — result for “minimum log2 enrichment ratio”: 1.61.
Under “minimum log2 enrichment ratio”, `QSMGFSYPPAYLIKY` is recorded as 2.26.
`EEQEHPFTPHYQIII` — result for “minimum log2 enrichment ratio”: 4.35.
Under “minimum log2 enrichment ratio”, `NLHHYAKWLASIDH` is recorded as 1.48.
Under “minimum log2 enrichment ratio”, `TARNHHAAHYSLHRG` is recorded as 3.36.

Set 3 — technique: RNA Bind-n-Seq; form: RNA; medium: in vitro; concentration: 365 nM; reference: no-protein control; reading: higher = stronger binding
Target: RNA binding protein fox-1 homolog 2, RRM domain, GST-SBP tag (RBFOX2, Homo sapiens, UniProt O43251-10, residues 100-194)
Setting: natural RNA segment, single round, ends assumed
Construct (chain): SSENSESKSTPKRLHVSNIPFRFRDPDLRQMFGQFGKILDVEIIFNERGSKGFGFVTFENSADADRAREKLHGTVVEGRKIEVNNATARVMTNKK
Under “RBNS enrichment (R)”, `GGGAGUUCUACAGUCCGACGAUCAACAUGCAGUCCUCUAGUGUUUCAUGUACAUUCUGUGGGGGGUGAACACCUUGGUUCUGGUUAAACAGCUGUACUUUUGAUAGCUGUGCCAGGAAGGGUUAGGACCAACUUGGAAUUCUCGGGUGCCAA` is recorded as 0.254.
Under “RBNS enrichment (R)”, `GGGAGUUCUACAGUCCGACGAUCAUAGGCUGUAGAACAGUAAAGUGGGAACUGGGCGGACUUUUCUAACAGUCGUACUUUUAUAAAGCGGUAUUUGGGUGUUUUUUCCCUCGAAUAGGUACUUUUGGAAGUUCUGGAAUUCUCGGGUGCCAA` is recorded as 0.421.
Under “RBNS enrichment (R)”, `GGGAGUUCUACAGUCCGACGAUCUGUGUUCGUGCGUGUGUGUGCGUACGUGUAUAUAACUGAAGUGUCUGUACGGAAUGCCCUUUGCUAGCCAUGGGCUGGUCACCAGAUUGUUUUGUAAUGCCCGCCCCUUGUGGAAUUCUCGGGUGCCAA` is recorded as 2.81.
`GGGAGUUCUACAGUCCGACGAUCCAUUCCUGAUUUAGCUAUUAUUUCUUUGUCUGAAGUCUGCCAUACUCACUUUGGGCCAGAGAGAGGUUACCUCACAGUGUGCUUCUGACGUCACAUUUCUCGGCCUCCGAUGGAAUUCUCGGGUGCCAA` — result for “RBNS enrichment (R)”: 0.227.
For `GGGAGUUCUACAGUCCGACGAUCGGUGGGAGGGCAGGAGGCCCAAUGGUUGAAAAUAAGAGGGUUCCCGCCCAGAACUCUUCUUGUGAGAGAUGUGCACUUUAAAGGGUGAUUUUGUUACAGAUGUUUAUGGUUGGAAUUCUCGGGUGCCAA`, “RBNS enrichment (R)” read 1.54.
Under “RBNS enrichment (R)”, `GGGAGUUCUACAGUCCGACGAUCAAGUUGUUCAAAAUACAUUAUUAGAUAAUUCUAAAGUGAGAAAAAUUAGAUUCUAAAACACAAAUCACAAGAACGUUUGAUAUUGAAGUGUCUGGCUUUAACAUGUGAUUUGGAAUUCUCGGGUGCCAA` is recorded as 0.396.
`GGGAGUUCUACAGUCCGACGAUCCACUUUUAGCAAAGUUUCUGUGGAUGCUAGUAAUUUAUACUUGAUCAGUUGUAUUCUAGUAAAGAACCUCUUUGGGGACUGUAGGAAAGCAUGUUUUUGUGGUUAUAAAAUGGAAUUCUCGGGUGCCAA`: “RBNS enrichment (R)” 16.
Under “RBNS enrichment (R)”, `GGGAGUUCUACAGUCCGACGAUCAAUGAAAAGUUGCAUACUUAUUGAUGUAUUGUAUGAGCCAGUAGCAUUUUAUGUACAAAACAGAAGUCAAUGCAACAGUAUGUAUGUGUGCCUGUGUGUGUAUAAAAAUAUGGAAUUCUCGGGUGCCAA` is recorded as 2.82.

Set 4 — technique: RNA Bind-n-Seq; form: RNA; medium: in vitro; concentration: 20 nM; setting: 6-mer, flanks averaged, single round; with: 150 mM KCl; reference: input library; reading: higher = stronger binding
Target: TAR DNA-binding protein 43, full length, His tag (TARDBP, Homo sapiens, UniProt Q13148, residues 1-414)
For `UUAGCC`, “6-mer enrichment (R)” read 0.626.
Under “6-mer enrichment (R)”, `UCGUUU` is recorded as 0.562.
`UCUUUC`: “6-mer enrichment (R)” 0.56.
`ACGUUA`: “6-mer enrichment (R)” 0.595.
For `AGGGGG`, “6-mer enrichment (R)” read 8.56.
`CAUCGU` — result for “6-mer enrichment (R)”: 0.6.
For `AUGGUA`, “6-mer enrichment (R)” read 0.843.
`GUGGGU`: “6-mer enrichment (R)” 3.91.

Set 5 — read-out: binding; technique: radioligand binding; concentration: 10 µM
Target: Muscarinic acetylcholine receptor M1 (CHRM1, Homo sapiens, UniProt P11229)
Sequence of UniProt P11229 (whole entry, looked up): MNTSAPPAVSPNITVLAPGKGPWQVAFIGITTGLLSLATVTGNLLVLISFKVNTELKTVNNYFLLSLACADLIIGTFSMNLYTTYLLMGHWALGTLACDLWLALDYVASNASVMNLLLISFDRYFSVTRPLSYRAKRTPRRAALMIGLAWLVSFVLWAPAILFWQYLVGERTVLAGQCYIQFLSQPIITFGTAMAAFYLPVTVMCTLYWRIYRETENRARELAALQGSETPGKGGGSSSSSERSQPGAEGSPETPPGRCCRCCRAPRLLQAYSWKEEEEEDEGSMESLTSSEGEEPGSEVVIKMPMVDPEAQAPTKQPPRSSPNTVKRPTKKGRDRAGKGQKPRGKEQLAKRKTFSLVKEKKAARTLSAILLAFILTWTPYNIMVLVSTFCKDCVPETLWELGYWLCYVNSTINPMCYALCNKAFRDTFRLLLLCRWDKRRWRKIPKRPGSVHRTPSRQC
With CC(C)(O)c1cncc(-c2nc3ccc(F)cc3n2C2CC2)c1 the inhibition was -4.49%.
The inhibition of CNC(=O)Nc1ccc2c(c1)[C@]1(CC2)OC(=O)N(CC(=O)N(Cc2ccc(F)cc2)[C@@H](C)C(F)(F)F)C1=O is reported as 5.42%.
For CCCOc1ccc([C@H]2[C@H](C(=O)O)[C@@H](c3ccc4c(c3)OCO4)CN2CC(=O)Nc2c(CC)cccc2CC)cc1, the inhibition was -16.3%.
The inhibition of Cc1c[nH]c2nccc(Oc3c(F)cc(Nc4cc(Cl)nc(N)n4)cc3F)c12 is reported as -0.22%.

Single results of other studies
For COc1ccc([C@@]23Oc4cc(OC)cc(OC)c4[C@]2(O)[C@H](O)[C@H](C(=O)N(C)OC)[C@H]3c2ccccc2)cc1, “fluorescence polarization change” read 1.9 mP and 68 mP (Eukaryotic initiation factor 4A-III (Homo sapiens, UniProt P38919); RNA clamping, fluorescence polarization; concentration not given, with: FAM-labelled poly r(AG)8 RNA).

Repeated from above (set 2):
`QDFKPMYQIKIRSHA` — result for “minimum log2 enrichment ratio”: 7.09.
`KFMPVYQIIAEMGAF`: “minimum log2 enrichment ratio” 3.23.
`HPVYHQVDTIQPHHH` — result for “minimum log2 enrichment ratio”: 2.29.
`EHYHMHDIMKNQHSH`: “minimum log2 enrichment ratio” 3.19.
Under “minimum log2 enrichment ratio”, `NLHHYAKWLASIDH` is recorded as 1.48.
Under “minimum log2 enrichment ratio”, `QSMGFSYPPAYLIKY` is recorded as 2.26.
`TVTPKYPPQYQILV`: “minimum log2 enrichment ratio” 3.44.
`YTPLRHPMHEHDHNH` — result for “minimum log2 enrichment ratio”: 3.3.
